Results pooled from the literature.
Parts stem from different laboratories: compare values within a part only.

Study 1
Target: Histone acetyltransferase KAT6A, winged helix 2, GST fusion (KAT6A, Homo sapiens, UniProt Q92794, residues 85-181)
Method: protein binding microarray
Form: double-stranded DNA, one strand shown
Matrix: in vitro
Concentration: not given
Notes: 8-mer, flanks averaged, mean of 2 arrays, mostly near background
Baseline: not given
Direction: higher = stronger binding
Quantity: E-score
Residues (chain): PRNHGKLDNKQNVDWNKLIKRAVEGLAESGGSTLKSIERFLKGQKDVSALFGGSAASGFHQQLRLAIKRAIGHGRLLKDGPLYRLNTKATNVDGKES
TCATTAGA: 0.169
ACAGTGTG: -0.097
TAATGTAA: -0.0721
GCCTCGCA: 0.0612
ACATTGGG: -0.246
CATTCAGG: -0.0148

Study 2
Target: Interferon regulatory factor 7, full length, phosphomimetic (IRF7, Homo sapiens, UniProt Q92985, residues 1-503, S471D/S472D/S475D/S476D/S477D/S483D/S484D/S487D)
Method: protein-binding microarray
Form: double-stranded DNA, one strand shown
Matrix: in vitro
Concentration: 2200 nM top
Notes: 60-bp whole probe
With: salmon DNA 0.4 mg/ml
Baseline: random background probes
Direction: higher = stronger binding
Quantity: fitted relative affinity
All sequences stand within: GCCTAGCACT … GTCTTGATTCGCTTGACGCTGCTG
Target sequence (chain): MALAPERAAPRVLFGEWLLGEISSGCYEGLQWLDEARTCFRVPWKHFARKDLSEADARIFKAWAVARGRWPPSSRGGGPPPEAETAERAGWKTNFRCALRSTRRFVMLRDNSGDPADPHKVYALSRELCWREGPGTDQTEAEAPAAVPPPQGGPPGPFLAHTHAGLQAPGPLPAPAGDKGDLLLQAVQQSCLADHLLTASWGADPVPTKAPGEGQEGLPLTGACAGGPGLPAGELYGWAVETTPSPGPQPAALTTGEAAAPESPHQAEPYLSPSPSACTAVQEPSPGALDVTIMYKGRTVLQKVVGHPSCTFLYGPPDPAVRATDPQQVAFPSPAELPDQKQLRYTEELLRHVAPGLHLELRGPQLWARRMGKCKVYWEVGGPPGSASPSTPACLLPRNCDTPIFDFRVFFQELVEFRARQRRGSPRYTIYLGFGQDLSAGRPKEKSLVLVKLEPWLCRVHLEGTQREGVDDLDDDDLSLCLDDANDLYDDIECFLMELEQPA
TAGATTGCAGTTCCGATTAGTGCTAG: 0.935 z-score
TAGAACTGGGGTTGCGATTAGTGCTA: 0.018 z-score
CAAGTGTGTGTCTGATACTGTGCTAG: 0.245 z-score
TAGGTTTCGGGTATAGGTTAGTGCTA: 4.3 z-score
TAGGTTTCCTATTGCTTTAGTGCTAG: 2.12 z-score

Study 3
Target: Sal-like protein 4, full length isoform A (SALL4, Homo sapiens, UniProt Q9UJQ4, residues 1-1053)
Chain of UniProt Q9UJQ4 (whole entry, looked up): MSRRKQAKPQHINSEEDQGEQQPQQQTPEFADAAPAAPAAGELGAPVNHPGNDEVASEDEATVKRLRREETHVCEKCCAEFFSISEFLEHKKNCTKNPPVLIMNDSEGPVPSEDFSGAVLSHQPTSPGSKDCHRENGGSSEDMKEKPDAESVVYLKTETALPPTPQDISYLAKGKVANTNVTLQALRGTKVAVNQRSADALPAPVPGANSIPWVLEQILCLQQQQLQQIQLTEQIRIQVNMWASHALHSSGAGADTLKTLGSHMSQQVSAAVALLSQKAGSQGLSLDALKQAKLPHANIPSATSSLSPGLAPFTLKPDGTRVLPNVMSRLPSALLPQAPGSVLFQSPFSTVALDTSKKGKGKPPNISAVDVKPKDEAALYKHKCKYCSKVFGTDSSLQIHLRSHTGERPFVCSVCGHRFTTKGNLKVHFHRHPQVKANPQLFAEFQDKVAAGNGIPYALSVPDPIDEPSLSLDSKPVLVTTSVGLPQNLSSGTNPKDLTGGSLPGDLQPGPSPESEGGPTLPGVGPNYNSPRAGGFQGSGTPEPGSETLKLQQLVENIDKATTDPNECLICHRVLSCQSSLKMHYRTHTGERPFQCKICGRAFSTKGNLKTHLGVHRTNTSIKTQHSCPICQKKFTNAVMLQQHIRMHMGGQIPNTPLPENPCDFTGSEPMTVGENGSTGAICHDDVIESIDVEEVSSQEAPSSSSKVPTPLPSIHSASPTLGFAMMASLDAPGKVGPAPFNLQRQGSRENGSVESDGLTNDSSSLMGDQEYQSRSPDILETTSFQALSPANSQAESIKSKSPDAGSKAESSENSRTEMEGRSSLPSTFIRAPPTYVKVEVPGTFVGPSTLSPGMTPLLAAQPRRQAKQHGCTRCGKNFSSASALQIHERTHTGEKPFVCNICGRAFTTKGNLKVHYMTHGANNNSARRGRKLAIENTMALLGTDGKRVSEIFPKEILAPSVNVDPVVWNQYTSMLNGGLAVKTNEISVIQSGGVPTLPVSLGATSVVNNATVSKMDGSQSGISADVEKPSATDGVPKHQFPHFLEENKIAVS
Method: universal PBM
Form: double-stranded DNA, one strand shown
Matrix: in vitro
Concentration: 600 nM
Notes: 8-mer, flanks averaged, mean of replicates
Direction: higher = stronger binding
Quantity: E-score
TCCAGACA: -0.102
AAGGTTTC: -0.012
CACACAAA: 0.0918
CCTAAAGG: -0.0913

Other studies, line by line
PhoQ, residues 284 288 289 292 302 303 SLSVQF  fold induction (PhoP, residues 12 14 15 18 19 QQAYL (Escherichia coli, UniProt P23836); Sort-seq, refers to: YFP reporter; E. coli; PhoQ-PhoP variant library, with: 10 µM Mg2+; baseline: high Mg2+ state, higher = stronger signaling): 10.5

Some of these lines once more (study 3):
TCCAGACA: -0.102
AAGGTTTC: -0.012
